Measured values collected from several papers.
“And” joins repeats or separate records; there may be more than shown. ± gives the spread as reported.
ADRA2C: Alpha-2C adrenergic receptor (ADRA2C, Homo sapiens, UniProt P18825)
UCHL1: Ubiquitin carboxyl-terminal hydrolase isozyme L1 (UCHL1, Homo sapiens, UniProt P09936)
TNKS: Poly [ADP-ribose] polymerase tankyrase-1 (TNKS, Homo sapiens, UniProt O95271)
Voltage-dependent P/Q-type calcium channel subunit alpha-1A: Voltage-dependent P/Q-type calcium channel subunit alpha-1A (Homo sapiens, UniProt O00555)
TOP2B: DNA topoisomerase 2-beta (TOP2B, Homo sapiens, UniProt Q02880)
T1: G-quadruplex DNA (Homo sapiens); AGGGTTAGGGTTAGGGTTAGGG
T2: RNA aptamer (Homo sapiens); chain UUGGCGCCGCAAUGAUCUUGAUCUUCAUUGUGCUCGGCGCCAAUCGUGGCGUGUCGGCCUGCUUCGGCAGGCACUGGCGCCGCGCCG; chain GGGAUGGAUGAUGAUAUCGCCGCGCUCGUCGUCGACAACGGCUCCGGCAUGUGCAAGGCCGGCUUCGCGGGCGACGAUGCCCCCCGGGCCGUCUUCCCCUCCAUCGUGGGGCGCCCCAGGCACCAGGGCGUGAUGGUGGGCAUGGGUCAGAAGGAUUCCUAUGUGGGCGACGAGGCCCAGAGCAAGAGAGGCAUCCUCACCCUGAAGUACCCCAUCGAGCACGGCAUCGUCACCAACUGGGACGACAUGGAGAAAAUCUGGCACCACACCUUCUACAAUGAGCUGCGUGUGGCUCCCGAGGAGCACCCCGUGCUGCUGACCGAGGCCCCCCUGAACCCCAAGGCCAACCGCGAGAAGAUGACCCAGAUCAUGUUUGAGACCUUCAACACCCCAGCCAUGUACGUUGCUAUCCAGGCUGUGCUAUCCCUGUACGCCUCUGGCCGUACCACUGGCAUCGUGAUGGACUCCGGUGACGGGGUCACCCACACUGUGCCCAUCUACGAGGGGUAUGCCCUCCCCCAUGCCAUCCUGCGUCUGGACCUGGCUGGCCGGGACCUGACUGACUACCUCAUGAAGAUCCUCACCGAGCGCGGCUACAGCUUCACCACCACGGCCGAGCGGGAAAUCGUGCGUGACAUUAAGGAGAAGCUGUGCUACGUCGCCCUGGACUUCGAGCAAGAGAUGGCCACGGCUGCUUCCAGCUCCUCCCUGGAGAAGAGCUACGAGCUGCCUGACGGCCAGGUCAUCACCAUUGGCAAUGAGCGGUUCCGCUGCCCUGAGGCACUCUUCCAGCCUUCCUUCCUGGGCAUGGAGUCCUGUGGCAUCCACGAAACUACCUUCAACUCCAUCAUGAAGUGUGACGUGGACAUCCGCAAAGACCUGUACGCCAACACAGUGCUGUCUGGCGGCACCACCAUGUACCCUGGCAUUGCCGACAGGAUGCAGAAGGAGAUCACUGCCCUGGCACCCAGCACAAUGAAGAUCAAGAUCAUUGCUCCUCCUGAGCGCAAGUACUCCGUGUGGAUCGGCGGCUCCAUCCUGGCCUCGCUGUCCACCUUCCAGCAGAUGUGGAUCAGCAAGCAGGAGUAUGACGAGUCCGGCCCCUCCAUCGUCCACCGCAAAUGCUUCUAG

Compound | target | test | system | setting | scale | measurement | value
Cc1cc(Oc2ncccc2CN2CCN(c3ccc(Br)cc3)CC2)ccc1-c1c(C)c(=O)[nH]c(=O)n1C | ADRA2C | binding, radioligand binding |  | together with: [3H]rauwolscine | baseline: Ki alpha2B over Ki alpha2C | selectivity ratio | 2
Cc1cc(-c2ccnc3[nH]cc(F)c23)cc(F)c1[C@@]1(O)[C@H](C)CN(C(=O)CN)C[C@@H]1C | LATS2 (Homo sapiens, UniProt Q9NRM7) | ATP probe binding, KiNativ, refers to: Lys2 site | HEK293T cell lysate | 0.1 µM |  | inhibition | 38.4%
COc1ccc(Nc2nc(Cl)nc(Nc3ccc(OC)cc3)n2)cc1 | UCHL1 | covalent, intact protein LC-MS |  | 12.5 µM |  | labelling | 3.84%
Cc1ccc(C(=O)Nc2ccc3ccccc3c2)o1 | Otop1 (Mus musculus, UniProt Q80VM9) | proton current, whole-cell patch clamp | cells expressing mouse Otop1 | 5 µM, pH 6.0 |  | peak current ratio Ip2/Ip1 | 1.61 and 1.56 and 1.24 and 1.57 and 1.8 and 1.87
O=S(=O)(Nc1ccc(C2CCOC2)cc1)c1cccc(Cl)c1O (centres unmarked) | malate dehydrogenase | enzyme activity, inhibitor |  | 200 µM, pH 7.0, 1% DMSO, aggregation counter-screen |  | remaining activity | 81%
O=c1cc(-c2ccc([N+](=O)[O-])cc2)[nH]c2c(-c3ccc(Cl)cc3)c(Cc3ccccc3)nn12 | ATP synthase mitochondrial F1 complex assembly factor 2 (ATPAF2, Homo sapiens, UniProt Q8N5M1) | thermal stability, binder, thermal proteome profiling | RD, cell lysate | 50 µM, 0.5% DMSO | baseline: DMSO vehicle | melting temperature shift | 2.6 °C
N#CC(=Cc1cccc(Cl)c1)C(=O)NCc1ccccc1 | UCHL1 | covalent, intact protein LC-MS |  | 12.5 µM |  | labelling | 14.4%
C=CC(=O)N1CCC[C@@H](n2nc(-c3ccc(Oc4ccccc4)cc3)c3c(N)ncnc32)C1 | PDGFRB (Homo sapiens, UniProt P09619) |  |  | 10 µM |  | remaining activity | 26.8%
CC(=O)N[C@H](C(=O)N1C[C@H](O)C[C@H]1C(=O)NCc1ccc(-c2scnc2C)cc1)C(C)(C)SCCCCCCNC(=O)C[C@@H]1N=C(c2ccc(Cl)cc2)c2c(sc(C)c2C)-n2c(C)nnc21 | BRD4/VHL, BD2; with elongins B/C (Homo sapiens, UniProt O60885+P40337) | ITC |  | concentration not given, 25 °C, ternary complex, together with: BRD4 BD2 |  | binding stoichiometry | 0.68 ± 0.03
CC(=O)N1CCC[C@H]1C(=O)NCCNC(=O)CCn1c(=O)[nH]c(=O)c2ccccc21 | TNKS | enzyme activity, inhibitor |  |  |  | ligand efficiency | 0.21
O=C(O)C1=CCNCC1 | BEST1 (Homo sapiens, UniProt O76090) | whole-cell patch clamp | HEK293 transiently expressing channel | concentration not given, membrane potential -20 mV |  | current density | -26.6 pA/pF and -11.8 pA/pF and -5.01 pA/pF and -5.9 pA/pF and -15.3 pA/pF and -5.02 pA/pF
C#CCN1C(=O)C(O)(CC(=O)c2ccc(CC)cc2)c2ccccc21 (centres unmarked) | UCHL1 | covalent, intact protein LC-MS |  | 12.5 µM |  | labelling | 11.6%
O=C(CCCCCCC(=O)Nc1ccccc1)NO | HDAC8 (Homo sapiens, UniProt Q9BY41) | ITC | Tris buffer | concentration not given, pH 7.5 |  | binding stoichiometry | 0.9
CCC(=O)NC[C@@H]1C[C@H]1c1cccc2c1CCO2 | Voltage-dependent P/Q-type calcium channel subunit alpha-1A | ion current, antagonist | HEK293 | 10 µM |  | inhibition | 7%
COc1cccc(NC(=O)C(C#N)=Cc2ccc(C#N)cc2)c1 | UCHL1 | covalent, intact protein LC-MS |  | 12.5 µM |  | labelling | 25.9%
CCCCC[C@H](O)/C=C/[C@H]1[C@H](O)CC(=O)[C@@H]1C/C=C\CCCC(=O)O | PTGER1 (Homo sapiens, UniProt P34995, S69A) | IP1 accumulation, agonist | AD293 | 1 h, EP1 S69A mutant |  | Emax | 105 ± 4.14%
O=C(O)c1sccc1S(=O)(=O)NCCn1ccc2c(Br)cccc21 | malate dehydrogenase | enzyme activity, inhibitor |  | 200 µM, pH 7.0, 1% DMSO, aggregation counter-screen |  | remaining activity | 144%
O=C(O)c1ccc(Nc2ncc3c(n2)-c2ccc(Cl)cc2C(c2c(F)cccc2F)=NC3)cc1 | Ret(h) | kinase activity |  | 1 µM |  | remaining activity | 80%
O=c1nc(SCc2cc(F)cc(C(F)(F)F)c2)nc(SCc2ccc3sccc3c2)[nH]1 | TOP2B | decatenation |  | 31.25 µM, replicate 1 |  | decatenated DNA | 0%

Compound | target | test | system | setting | scale | measurement | value
Nc1nc2c(ncn2[C@@H]2O[C@H](COP(=O)(O)O)[C@@H](O)[C@H]2O)c(=O)[nH]1 | GUK1 (Homo sapiens, UniProt Q16774, R41A) | enzyme activity, NADH-coupled |  | 500 µM |  | reaction rate | 0.654 s⁻¹ and 1.41 s⁻¹ and 0.818 s⁻¹
COc1ccc(S(=O)(=O)Oc2ccc(C=O)cc2OC)cc1 | UCHL1 | covalent, intact protein LC-MS |  | 12.5 µM |  | labelling | 12.2%
Cc1cc(Nc2cc(N3CCN(C)CC3)nc(Sc3ccc(NC(=O)C4CC4)cc3)n2)[nH]n1 | Lyn (Mus musculus, UniProt P25911) | kinase activity, KinaseProfiler |  | 0.03 µM, species mouse | baseline: control | remaining activity | 96%
CCCCn1/c(=C/C=C/C2=[N+](CCC[N+](C)(C)C)c3ccc(F)cc3C2(C)C)c2cccc3cccc1c32 | T1, G-quadruplex DNA (Homo sapiens) | CD titration |  | KCl 50 mM, strong ICD |  | binding | binds
N#CC(=Cc1ccc(Cl)cc1)C(N)=O | UCHL1 | covalent, intact protein LC-MS |  | 12.5 µM |  | labelling | 6.91%
O=c1nc(SCc2cc(F)cc(C(F)(F)F)c2)nc(SCc2ccc3nc(Cl)ccc3c2)[nH]1 | TOP2B | decatenation |  | 31.25 µM, replicate 1 |  | decatenated DNA | 0.61%
N[C@@H](CCC(=O)O)C(=O)O | glc-2 (Caenorhabditis elegans, UniProt Q17328, R351A/R352A/R353A/T283S) | two-electrode voltage clamp | Xenopus laevis oocytes |  |  | mean current | 1.4 µA
NC(=O)c1ccc[n+]([C@@H]2O[C@H](COP(=O)([O-])OP(=O)(O)OC[C@H]3O[C@@H](n4cnc5c(NCCNC(=O)CCCCCNC(=O)CCCCCNC(=O)CCCC[C@@H]6SC[C@@H]7NC(=O)N[C@@H]76)ncnc54)[C@H](O)[C@@H]3O)[C@@H](O)[C@H]2O)c1 | TNKS | enzyme activity, substrate, DELFIA |  | together with: histone H1 |  | apparent Km | 5 µM
Oc1ccccc1-c1n[nH]cc1-c1ccnc2ccccc12 | Extracellular signal-regulated kinase 1 (CEK1, Candida albicans, UniProt Q5A1D3) | kinase binding, MIB/MS competition | Candida albicans lysate | 1 µM | baseline: DMSO, negative = stronger binding | log2 fold change | 0.11
Cc1cc(Oc2ncccc2CN2CCN(c3ccc(O)cc3)CC2)ccc1-c1c(C)c(=O)[nH]c(=O)n1C | ADRA2C | binding, radioligand binding |  | together with: [3H]rauwolscine | baseline: Ki alpha2B over Ki alpha2C | selectivity ratio | 3
CC[C@H]1OC(=O)[C@H](C)[C@@H](O[C@H]2C[C@@](C)(OC)[C@@H](O)[C@H](C)O2)[C@H](C)[C@@H](O[C@@H]2O[C@H](C)C[C@H](N(C)C)[C@H]2O)[C@](C)(OC)C[C@@H](C)C(=O)[C@H](C)[C@@H](O)[C@]1(C)O | uncharacterized protein (Saccharopolyspora erythraea, UniProt A4F7P9) |  |  | concentration not given, pH 7.6, 20 °C, together with: p-nitrophenyl-β-D-glucopyranoside |  | apparent Km | 3320 µM
CNCCC(Oc1ccc(C(F)(F)F)cc1)c1ccccc1.Cl (centres unmarked) | Voltage-dependent P/Q-type calcium channel subunit alpha-1A | ion current, antagonist, automated patch clamp |  |  |  | IC30 | 5.33 µM
CN(CCO)c1cc2sc(/C=C(\C#N)c3ccc(C#N)cc3)cc2s1 | T2, RNA aptamer (Homo sapiens) | fluorescence activation |  |  |  | binding | binds
COc1ccc2c(c1)c(CC(=O)O)c(C)n2C(=O)c1ccc(Cl)cc1 | Voltage-dependent P/Q-type calcium channel subunit alpha-1A | ion current, antagonist | HEK293 | 3 µM |  | inhibition | -1%
C=C1C(=O)O[C@@H]2C[C@@]3(C)CCCC(=C)[C@@H]3C[C@H]12 | THRA (Homo sapiens, UniProt P10827) | reporter gene, Gal4 hybrid reporter |  | 10 µM | baseline: vehicle | activation | 0.7 fold
CC(=O)N[C@H](C(=O)N[C@@H](CC(=O)O)C(=O)N1CCC[C@H]1C(=O)N1CCC[C@H]1C(=O)N[C@@H](CC(C)C)C(=O)N[C@@H](Cc1c[nH]cn1)C(=O)N[C@@H](CO)C(=O)N[C@H](C(=O)N[C@@H](C)C(N)=O)[C@@H](C)OP(=O)(O)O)C(C)C | PLK1 (Homo sapiens, UniProt P53350) | polo-box domain binding, isothermal titration calorimetry |  | concentration not given, 25 °C |  | binding entropy | -21.4 cal/(mol·K)
CC[C@@H]1[C@H](F)C(=O)N[C@@H]1COc1nccc2cc(C(N)=O)c(OC)cc12 | LRRK2 (Homo sapiens, UniProt Q5S007) | ATP-site probe binding, ActivX profiling | THP-1 cell lysate | 0.04 mM, Lys2 site |  | inhibition | 1.9%
Nc1c(Br)cc(Br)cc1CN[C@H]1CC[C@H](O)CC1 | Voltage-dependent P/Q-type calcium channel subunit alpha-1A | ion current, antagonist | HEK293 | 10 µM |  | inhibition | 31%
O=C(Nc1ccccc1Oc1nc2ccccc2n2cnnc12)c1cccs1 | Catenin beta-1, residues 141-305 (CTNNB1, Homo sapiens, UniProt P35222) | ITC |  | 25 °C |  | ΔS | 16.4 cal/mol/K

A few entries again:
Compound | target | test | system | setting | scale | measurement | value
O=C(O)c1ccc(Nc2ncc3c(n2)-c2ccc(Cl)cc2C(c2c(F)cccc2F)=NC3)cc1 | Ret(h) | kinase activity |  | 1 µM |  | remaining activity | 80%
O=c1nc(SCc2cc(F)cc(C(F)(F)F)c2)nc(SCc2ccc3sccc3c2)[nH]1 | TOP2B | decatenation |  | 31.25 µM, replicate 1 |  | decatenated DNA | 0%
Nc1nc2c(ncn2[C@@H]2O[C@H](COP(=O)(O)O)[C@@H](O)[C@H]2O)c(=O)[nH]1 | GUK1 (Homo sapiens, UniProt Q16774, R41A) | enzyme activity, NADH-coupled |  | 500 µM |  | reaction rate | 0.654 s⁻¹ and 1.41 s⁻¹ and 0.818 s⁻¹
COc1ccc(S(=O)(=O)Oc2ccc(C=O)cc2OC)cc1 | UCHL1 | covalent, intact protein LC-MS |  | 12.5 µM |  | labelling | 12.2%
Cc1cc(Nc2cc(N3CCN(C)CC3)nc(Sc3ccc(NC(=O)C4CC4)cc3)n2)[nH]n1 | Lyn (Mus musculus, UniProt P25911) | kinase activity, KinaseProfiler |  | 0.03 µM, species mouse | baseline: control | remaining activity | 96%
